Measured values collected from several papers.
Compare with care: the assays were run in different laboratories. ± gives the spread as reported.
Matrix protein 2 S31N: Matrix protein 2 (Influenza A virus, UniProt P0DOF5, S31N)

SMILES | tested on | test | test system | conditions | quantity | value
CC1CC(c2ccc(C(=O)O)cc2)=NN1c1ccc(C#N)c(Cl)c1 (centres unmarked) | SARS-CoV-2 | viral replication | Calu-3, B.1.617.2 Delta variant | 72 h | EC50 | 54 µM
O=c1[nH]cnc2c(C3NC(COP(=O)(O)OP(=O)(O)OP(=O)(O)O)C(O)C3O)c[nH]c12 (centres unmarked) | SARS-CoV-2 | viral RNA copies | Vero C1008, Omicron BA.1 | 48 h | EC50 | 0.41 ± 0.03 µM
N#Cc1ccc(N2N=C(c3ccc(C(=O)O)cc3)CC2C2CCCC2)cc1Cl (centres unmarked) | SARS-CoV-2 | viral replication | Calu-3, B.1.617.2 Delta variant | 72 h | EC50 | 12.7 µM
N#CC1(c2ccc3c(N)ncnn23)OC(COP(=O)(O)OP(=O)(O)OP(=O)(O)O)C(O)C1O (centres unmarked) | SARS-CoV-2 | viral RNA copies | Vero C1008, Omicron BA.1 | 48 h | EC50 | 1.82 ± 0.08 µM
O=C(CCCCCCCCCCc1ccc(O)c(O)c1)c1c(O)cccc1O | SARS-CoV-2 | viral replication, MTT | HEK293T ACE2, Alpha B.1.1.7 |  | EC50 | 5.2 µM
COc1ccc2ccc(C(=O)Nc3ccc(CN)cc3)c(O)c2c1 | SARS-CoV-2 | viral replication | D614G |  | EC50 | 8.36 ± 2.52 µM
CC1CC(c2ccc(C(=O)O)cn2)=NN1c1ccc(C#N)c(Cl)c1 (centres unmarked) | SARS-CoV-2 | viral replication | Calu-3, B.1.617.2 Delta variant | 72 h | EC50 | 89.8 µM
CC(C)CC(C(=O)N1CC2(CC1C#N)C(=O)Nc1ccccc12)N(C)C(=O)c1cc2c(F)cc(F)c(F)c2[nH]1 (centres unmarked) | SARS-CoV-2 | viral replication | Vero E6-TMPRSS2, Omicron variants |  | EC50 | 0.019 µM
CC1CC(c2ccc(C(=O)NS(C)(=O)=O)cc2)=NN1c1ccc(C#N)c(Cl)c1 (centres unmarked) | SARS-CoV-2 | viral replication | Calu-3, B.1.617.2 Delta variant | 72 h | EC50 | 33.2 µM
Oc1ccc(CCCCCCCCC(O)c2c(O)cccc2O)cc1O (centres unmarked) | SARS-CoV-2 | viral replication, MTT | HEK293T ACE2, Delta B.1.617.2 |  | EC50 | 8.3 µM
CC(C)(C)[C@H](NC(=O)NC1(CS(=O)(=O)C(C)(C)C)CCCCC1)C(=O)N1C[C@H]2[C@@H]([C@H]1C(=O)N[C@H](C#N)C[C@@H]1CCNC1=O)C2(C)C | Replicase polyprotein 1ab, main protease (rep, Severe acute respiratory syndrome coronavirus 2, UniProt P0DTD1, C3408A) | binder, thermal shift |  |  | delta Tm | 1.5 °C
CC(=O)Oc1ccc(CCCCCCCCC(=O)c2c(OC(C)=O)cccc2OC(C)=O)cc1OC(C)=O | SARS-CoV-2 | viral replication, MTT | HEK293T ACE2, Delta B.1.617.2 |  | EC50 | 1.4 µM
CC(C)C(=O)OC[C@H]1O[C@@](C#N)(n2ccc(N)nc2=O)[C@H](O)[C@@H]1O | SARS-CoV-2 | viral replication | Calu-3, Beta |  | EC50 | 0.06 ± 0.01 µM
Cc1ccc(N2CC3CCC(C2)N3C)cc1C(=O)N[C@H](C)c1cc(-c2cnn(C)c2)nc2ccccc12 | SARS-CoV-2 | viral replication | Nsp5 L50F/E166A/L167F |  | EC50 | 0.22 µM
O=C(CCCCCCc1ccc(O)c(O)c1)c1c(O)cccc1O | SARS-CoV-2 | viral replication, MTT | HEK293T ACE2, Gamma P.1 |  | EC50 | 7.2 µM
O=C(NC1CCN(c2ncnc3[nH]cnc23)CC1)c1cccc(NS(=O)(=O)c2ccc(C(F)(F)F)cc2)c1 | SARS-CoV-2 | viral replication | A549-ACE2, Delta variant | 24 h | EC50 | 0.5 µM
Brc1cc(CNC23CC4CC(CC(C4)C2)C3)on1 | Matrix protein 2 S31N | proton channel activity, inhibitor | Influenzavirus A, S31N mutant | 100 µM | inhibition | 38%
COc1ccc2c(O)c(C(=O)Nc3ccc(CN)cc3)ccc2c1 | SARS-CoV-2 | viral replication | D614G |  | EC50 | 5.3 ± 1.01 µM
COc1ccc(CNC(C)(C)C23CC4CC(CC(C4)C2)C3)c(O)c1 | Matrix protein 2 S31N | binding |  |  | Kd | > 100 µM
Cc1cc(CNC23CC4CC(CC(C4)C2)C3)no1 | Matrix protein 2 S31N | channel activity, inhibitor |  | 100 µM, S31N mutant | inhibition | 49%

A few entries again:
SMILES | tested on | test | test system | conditions | quantity | value
COc1ccc(CNC(C)(C)C23CC4CC(CC(C4)C2)C3)c(O)c1 | Matrix protein 2 S31N | binding |  |  | Kd | > 100 µM
Cc1cc(CNC23CC4CC(CC(C4)C2)C3)no1 | Matrix protein 2 S31N | channel activity, inhibitor |  | 100 µM, S31N mutant | inhibition | 49%
